Measured values from different studies.
Compare with care: the assays were run in different laboratories.
GBA2: Beta-glucosidase (GBA2, Homo sapiens, UniProt Q9HCG7)
UniProt Q9HCG7, sequence (whole entry, looked up): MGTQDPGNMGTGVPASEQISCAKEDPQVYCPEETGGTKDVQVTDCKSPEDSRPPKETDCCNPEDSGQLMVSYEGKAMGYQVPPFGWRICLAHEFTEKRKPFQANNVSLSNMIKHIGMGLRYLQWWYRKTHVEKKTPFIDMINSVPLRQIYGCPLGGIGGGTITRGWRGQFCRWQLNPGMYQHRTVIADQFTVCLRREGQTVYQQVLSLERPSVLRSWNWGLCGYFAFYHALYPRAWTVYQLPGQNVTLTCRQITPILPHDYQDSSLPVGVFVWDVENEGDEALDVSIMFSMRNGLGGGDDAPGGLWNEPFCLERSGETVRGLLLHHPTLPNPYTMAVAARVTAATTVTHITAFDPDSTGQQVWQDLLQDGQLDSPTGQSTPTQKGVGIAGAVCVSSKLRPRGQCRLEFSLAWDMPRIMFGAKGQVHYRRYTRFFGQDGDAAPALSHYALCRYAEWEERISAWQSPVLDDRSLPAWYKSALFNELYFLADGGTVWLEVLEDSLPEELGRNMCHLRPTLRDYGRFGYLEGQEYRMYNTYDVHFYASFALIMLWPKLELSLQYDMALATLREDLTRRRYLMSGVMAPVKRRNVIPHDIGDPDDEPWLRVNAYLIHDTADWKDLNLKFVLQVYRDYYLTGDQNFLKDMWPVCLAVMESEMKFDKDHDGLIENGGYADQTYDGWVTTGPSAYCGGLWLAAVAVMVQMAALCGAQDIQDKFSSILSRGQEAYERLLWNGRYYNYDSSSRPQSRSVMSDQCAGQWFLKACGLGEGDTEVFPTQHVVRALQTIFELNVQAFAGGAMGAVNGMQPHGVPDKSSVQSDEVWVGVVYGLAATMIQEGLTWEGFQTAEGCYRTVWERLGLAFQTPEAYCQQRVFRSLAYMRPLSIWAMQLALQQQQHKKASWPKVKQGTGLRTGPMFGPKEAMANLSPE
PPARA ligand-binding domain: Peroxisome proliferator-activated receptor alpha, ligand-binding domain (PPARA, Homo sapiens, UniProt Q07869)
UniProt Q07869, sequence (whole entry, looked up): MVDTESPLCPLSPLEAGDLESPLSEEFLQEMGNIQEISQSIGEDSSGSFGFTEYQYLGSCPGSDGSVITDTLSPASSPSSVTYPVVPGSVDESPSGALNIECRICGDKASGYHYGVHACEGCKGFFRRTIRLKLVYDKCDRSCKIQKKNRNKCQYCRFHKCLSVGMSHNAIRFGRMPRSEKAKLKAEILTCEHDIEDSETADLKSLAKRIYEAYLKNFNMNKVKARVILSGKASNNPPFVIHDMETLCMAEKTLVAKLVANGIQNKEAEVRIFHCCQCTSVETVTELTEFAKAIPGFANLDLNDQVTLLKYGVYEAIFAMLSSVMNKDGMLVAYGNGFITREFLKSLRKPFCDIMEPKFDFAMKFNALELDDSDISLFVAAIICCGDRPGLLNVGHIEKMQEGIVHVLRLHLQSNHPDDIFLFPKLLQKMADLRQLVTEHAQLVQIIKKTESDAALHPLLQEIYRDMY
Chymotrypsinogen A: Chymotrypsinogen A (Bos taurus, UniProt P00766)
UniProt P48736, sequence (whole entry, looked up): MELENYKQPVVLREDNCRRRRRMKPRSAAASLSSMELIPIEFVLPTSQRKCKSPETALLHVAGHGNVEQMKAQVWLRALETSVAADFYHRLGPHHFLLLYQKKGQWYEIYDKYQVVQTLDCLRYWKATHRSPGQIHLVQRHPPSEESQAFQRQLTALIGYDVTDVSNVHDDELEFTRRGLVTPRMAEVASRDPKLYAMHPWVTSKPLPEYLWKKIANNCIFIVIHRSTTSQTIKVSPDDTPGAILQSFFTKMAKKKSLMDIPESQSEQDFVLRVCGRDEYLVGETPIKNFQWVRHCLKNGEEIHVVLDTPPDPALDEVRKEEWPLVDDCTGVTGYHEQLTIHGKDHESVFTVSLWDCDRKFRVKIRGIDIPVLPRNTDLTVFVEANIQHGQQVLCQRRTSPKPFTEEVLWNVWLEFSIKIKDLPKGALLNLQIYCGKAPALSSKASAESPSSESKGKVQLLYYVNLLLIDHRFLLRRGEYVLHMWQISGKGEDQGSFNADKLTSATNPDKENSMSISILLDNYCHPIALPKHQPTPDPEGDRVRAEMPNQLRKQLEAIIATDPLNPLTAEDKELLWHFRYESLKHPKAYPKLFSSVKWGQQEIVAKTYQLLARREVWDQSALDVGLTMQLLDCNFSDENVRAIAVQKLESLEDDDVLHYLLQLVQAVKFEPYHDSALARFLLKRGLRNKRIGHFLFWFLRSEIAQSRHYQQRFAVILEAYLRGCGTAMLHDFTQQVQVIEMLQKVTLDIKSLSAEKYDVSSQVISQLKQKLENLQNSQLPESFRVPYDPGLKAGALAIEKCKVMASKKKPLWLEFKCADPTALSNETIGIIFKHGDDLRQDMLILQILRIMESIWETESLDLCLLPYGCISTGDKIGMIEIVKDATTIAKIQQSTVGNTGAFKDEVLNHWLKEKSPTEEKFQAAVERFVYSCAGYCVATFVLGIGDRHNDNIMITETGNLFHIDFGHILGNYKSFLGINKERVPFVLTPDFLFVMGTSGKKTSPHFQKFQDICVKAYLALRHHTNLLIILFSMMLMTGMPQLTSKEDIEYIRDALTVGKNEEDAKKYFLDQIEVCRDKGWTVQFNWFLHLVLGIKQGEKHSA
UniProt P42229, sequence (whole entry, looked up): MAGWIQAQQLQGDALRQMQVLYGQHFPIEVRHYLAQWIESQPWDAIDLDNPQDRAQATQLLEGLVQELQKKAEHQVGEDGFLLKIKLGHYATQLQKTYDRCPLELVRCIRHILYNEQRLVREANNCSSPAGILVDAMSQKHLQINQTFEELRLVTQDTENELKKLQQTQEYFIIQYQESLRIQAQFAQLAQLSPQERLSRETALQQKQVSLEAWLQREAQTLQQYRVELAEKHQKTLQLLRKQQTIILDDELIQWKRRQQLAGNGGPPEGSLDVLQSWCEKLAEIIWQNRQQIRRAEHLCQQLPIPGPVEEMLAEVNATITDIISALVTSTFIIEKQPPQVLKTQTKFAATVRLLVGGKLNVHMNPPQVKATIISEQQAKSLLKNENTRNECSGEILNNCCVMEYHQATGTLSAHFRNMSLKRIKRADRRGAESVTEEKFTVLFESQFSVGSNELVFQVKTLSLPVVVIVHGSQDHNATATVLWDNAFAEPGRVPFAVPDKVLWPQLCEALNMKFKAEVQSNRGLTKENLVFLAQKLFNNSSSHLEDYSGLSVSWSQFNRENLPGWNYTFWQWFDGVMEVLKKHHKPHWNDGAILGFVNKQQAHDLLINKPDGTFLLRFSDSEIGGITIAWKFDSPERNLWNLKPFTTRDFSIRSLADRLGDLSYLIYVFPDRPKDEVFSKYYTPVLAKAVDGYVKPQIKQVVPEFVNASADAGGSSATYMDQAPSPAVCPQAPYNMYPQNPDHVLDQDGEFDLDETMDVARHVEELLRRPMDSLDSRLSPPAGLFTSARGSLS
UniProt P50750, sequence (whole entry, looked up): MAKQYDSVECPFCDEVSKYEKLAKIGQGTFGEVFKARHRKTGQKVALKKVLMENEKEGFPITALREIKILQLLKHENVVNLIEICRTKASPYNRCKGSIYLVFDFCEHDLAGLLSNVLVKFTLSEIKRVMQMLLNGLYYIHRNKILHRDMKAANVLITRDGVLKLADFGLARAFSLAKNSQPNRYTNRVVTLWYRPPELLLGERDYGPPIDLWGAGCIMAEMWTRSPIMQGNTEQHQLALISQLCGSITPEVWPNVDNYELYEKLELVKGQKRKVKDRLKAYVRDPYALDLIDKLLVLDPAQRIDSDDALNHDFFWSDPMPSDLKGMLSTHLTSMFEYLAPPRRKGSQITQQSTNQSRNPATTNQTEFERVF
UniProt P10997, sequence (whole entry, looked up): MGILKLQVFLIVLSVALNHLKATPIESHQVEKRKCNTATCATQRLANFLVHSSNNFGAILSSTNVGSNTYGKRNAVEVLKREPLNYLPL
UniProt P30874, sequence (whole entry, looked up): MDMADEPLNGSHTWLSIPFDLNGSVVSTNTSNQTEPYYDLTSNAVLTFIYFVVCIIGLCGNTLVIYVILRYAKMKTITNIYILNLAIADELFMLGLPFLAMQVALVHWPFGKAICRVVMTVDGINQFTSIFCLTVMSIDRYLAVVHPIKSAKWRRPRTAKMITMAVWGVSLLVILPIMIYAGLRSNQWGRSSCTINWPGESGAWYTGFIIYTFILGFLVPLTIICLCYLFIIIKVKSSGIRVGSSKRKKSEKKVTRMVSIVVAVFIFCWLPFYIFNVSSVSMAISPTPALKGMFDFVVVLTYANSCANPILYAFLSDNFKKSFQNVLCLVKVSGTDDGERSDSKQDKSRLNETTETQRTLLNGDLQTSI
UniProt O14757, sequence (whole entry, looked up): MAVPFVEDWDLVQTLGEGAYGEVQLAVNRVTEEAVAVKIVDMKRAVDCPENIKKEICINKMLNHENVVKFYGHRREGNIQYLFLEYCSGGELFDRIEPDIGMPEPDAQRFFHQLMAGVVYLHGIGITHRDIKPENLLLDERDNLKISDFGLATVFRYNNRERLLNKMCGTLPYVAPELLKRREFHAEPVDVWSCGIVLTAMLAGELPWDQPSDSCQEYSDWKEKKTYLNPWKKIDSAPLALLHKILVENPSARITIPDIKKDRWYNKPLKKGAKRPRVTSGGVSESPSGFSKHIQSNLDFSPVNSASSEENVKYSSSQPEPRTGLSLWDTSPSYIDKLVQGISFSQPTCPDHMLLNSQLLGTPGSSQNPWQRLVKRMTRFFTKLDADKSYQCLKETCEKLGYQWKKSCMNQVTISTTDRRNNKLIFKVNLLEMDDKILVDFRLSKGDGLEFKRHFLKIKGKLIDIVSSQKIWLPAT

C/C1=C\CC/C(C)=C/CC(C)(C)/C=C/C1  IC50 (TRPV1 (Homo sapiens, UniProt Q8NER1, Y495Q); ion current, inhibitor, patch clamp): 22.5 µM
OC[C@@H]1[C@@H](O)[C@H](O)[C@@H](O)CN1CCCCCOCCc1ccsc1  IC50 (GBA2; inhibitor, 4MU-β-D-glucopyranoside; HEK293T homogenates overexpressing GBA2): 0.002 µM
CN(C1=C(c2ccccc2)C(=O)NC1=O)c1ccccc1  IC50 (Sensor histidine kinase AirS (Staphylococcus aureus, UniProt Q2FX96); autophosphorylation, inhibitor, BODIPY-FL-ATPγS in-gel fluorescence; lower bound of confidence interval): > 477 µM
Cc1c(Cc2cccc(OC(C)(C)C(=O)O)c2)c2ccc(C(=O)N[C@@H](C)c3ccc(C4CC4)cc3)cc2n1C  IC50 (PPARA ligand-binding domain; reporter gene, luciferase reporter; HEK293T, Gal4-PPARα LBD): 19 µM
C[C@@H](O)[C@@H]1NC(=O)[C@H](CCCCN)NC(=O)[C@@H](Cc2c[nH]c3ccccc23)NC(=O)[C@H](Cc2ccc(NC(N)=O)cc2)NC(=O)[C@H](NC(=O)[C@H](Cc2ccccc2)NC(N)=O)CSSC[C@@H](C(=O)N[C@@H](Cc2ccc3ccccc3c2)C(N)=O)NC1=O  IC50 (SSTR2 (Homo sapiens, UniProt P30874); radioligand binding, inhibitor, competitive radioligand displacement; cloned receptor): 0.089 µM
OC[C@@H]1[C@@H](O)[C@H](O)[C@@H](O)CN1CCCCCCOCC12CC3CC(CC(C3)C1)C2  IC50 (GBA2; inhibitor, 4MU-β-D-glucopyranoside; HEK293T homogenates overexpressing GBA2): 0.002 µM
Cc1cc(C)c(S(=O)(=O)N(CC(=O)O)c2ccc(Nc3ccnc(N4CCCC4)n3)cc2)c(C)c1  IC50 (CHEK1 (Homo sapiens, UniProt O14757); enzyme activity, inhibitor): > 100 µM
COc1ccc(NC(=O)C(C(F)(F)F)C(F)(F)F)cc1  IC50 (Chymotrypsinogen A; enzyme activity, inhibitor, fluorescence): 4.7 µM
NCCCCOC(=O)c1ccc(/N=N/c2ccccc2)cc1  IC50 (IAPP (Homo sapiens, UniProt P10997); ThT displacement, ThT fluorescence; pH 7.4, preformed target-ThT complex, added: 5 µM ThT): 3.5 µM
O=C1/C(=N\c2ccc(Cl)cc2Br)c2ccccc2N1C(=O)c1ccccc1Br  IC50 (PIK3CG (Homo sapiens, UniProt P48736); enzyme activity, inhibitor, ADP detection): 0.00854 µM
Cc1nn(-c2cccc(N)c2)c(=O)c2cnc(Nc3ccc(N4CCNCC4)cc3)nc12  IC50 (Cyclin-dependent kinase 9, with cyclin T1 (CDK9, Homo sapiens, UniProt P50750); kinase activity, inhibitor, SelectScreen kinase profiling): 2.2 µM
OC[C@@H]1[C@@H](O)[C@H](O)[C@@H](O)CN1CCCCCOCC1CCC1  IC50 (GBA2; inhibitor, 4MU-β-D-glucopyranoside; HEK293T homogenates overexpressing GBA2): 0.009 µM
Cc1c(Cc2cccc(OC(C)C(=O)O)c2)c2ccc(C(=O)NC(C)c3cccc(C4CC4)c3)cc2n1C (mixture of isomers)  IC50 (PPARA ligand-binding domain; reporter gene, luciferase reporter; HEK293T, Gal4-PPARα LBD): 25.2 µM
CC1C(=O)N(C(=O)c2ccccc2)C1c1ccccc1 (racemic)  IC50 (Chymotrypsinogen A; enzyme activity, inhibitor, fluorescence): 3.8 µM
O=C(COc1ccc2ccccc2c1)NCc1ccc(OP(=O)(O)O)c(OP(=O)(O)O)c1  IC50 (Signal transducer and activator of transcription 5A, SH2 (Homo sapiens, UniProt P42229); ligand displacement, FP): 18.8 µM
CC(C)Oc1cccc(NC(=O)C(C(F)(F)F)C(F)(F)F)c1  IC50 (Chymotrypsinogen A; enzyme activity, inhibitor, fluorescence): > 100 µM
Cc1c(Cc2ccc(OC(C)C(=O)O)cc2)c2ccc(C(=O)N[C@@H](C)c3ccc(C4CC4)cc3)cc2n1C (stereo partly drawn)  IC50 (PPARA ligand-binding domain; reporter gene, luciferase reporter; HEK293T, Gal4-PPARα LBD): 19.8 µM
COc1cc2c(cc1OC)-c1cc3ccc(OC)c(OC)c3c[n+]1CC2.[Cl][Fe-]([Cl])([Cl])[Cl]  IC50 (lipase; enzyme activity, inhibitor; added: p-nitrophenyl butyrate): 429 µM

Excerpt of the above:
C[C@@H](O)[C@@H]1NC(=O)[C@H](CCCCN)NC(=O)[C@@H](Cc2c[nH]c3ccccc23)NC(=O)[C@H](Cc2ccc(NC(N)=O)cc2)NC(=O)[C@H](NC(=O)[C@H](Cc2ccccc2)NC(N)=O)CSSC[C@@H](C(=O)N[C@@H](Cc2ccc3ccccc3c2)C(N)=O)NC1=O  IC50 (SSTR2 (Homo sapiens, UniProt P30874); radioligand binding, inhibitor, competitive radioligand displacement; cloned receptor): 0.089 µM
Cc1c(Cc2ccc(OC(C)C(=O)O)cc2)c2ccc(C(=O)N[C@@H](C)c3ccc(C4CC4)cc3)cc2n1C (stereo partly drawn)  IC50 (PPARA ligand-binding domain; reporter gene, luciferase reporter; HEK293T, Gal4-PPARα LBD): 19.8 µM
COc1cc2c(cc1OC)-c1cc3ccc(OC)c(OC)c3c[n+]1CC2.[Cl][Fe-]([Cl])([Cl])[Cl]  IC50 (lipase; enzyme activity, inhibitor; added: p-nitrophenyl butyrate): 429 µM
